Assay results from different studies.
Compare with care: the assays were run in different laboratories. “And” joins repeats or separate records; there may be more than shown. Numbers after ± are the reported error. In brackets after ≈: the same amount, converted by molar mass.
Organism: Staphylococcus aureus

The biofilm inhibition of `O=C(O)c1cn(C2CC2)c2cc(N3CCNCC3)c(F)cc2c1=O` is reported as 4.18% (ATCC 33591 MRSA; 4×MIC).
The growth inhibition of `CC(N)C(O)CCCCCCCCCCCCCCC(=O)CCCCCCCC(O)C(C)N` (stereo not shown) is reported as 99 ± 0.4% (resazurin; ATCC 12600; 50 µM).
`CCC(CCCCCCCCCCc1cc(O)cc(O)c1)C(C)C` (stereo not shown) gave an IC50 of > 200 µM (bacterial growth; MRSA USA300).
With `CCCCCCCCCCCc1c([N+](=O)[O-])oc2ccc3ccccc3c12` the MIC90 was > 32 µg/mL (REMA).
With `CC[C@H](C)[C@H](NC(=O)[C@H](Cc1ccc(O)cc1)NC(=O)[C@@H](NC(=O)[C@H](Cc1c[nH]c2ccccc12)NC(=O)[C@@H]1CCCN1C(=O)[C@@H](NC(=O)[C@H](C)N)[C@@H](C)CC)[C@@H](C)CC)C(=O)N[C@@H](Cc1ccc(O)cc1)C(=O)N[C@@H](CCCNC(=N)N)C(=O)N[C@@H](CC(C)C)C(=O)N[C@@H](CC(C)C)C(=O)N[C@@H](CCCNC(=N)N)C(=O)N[C@@H](CCCCN)C(=O)NCC(=O)O` the MBC was 3.75 µM (≈ 6.61 µg/mL) (ATCC 35556; 18 h, 37 °C).
`CC(C)C[C@H](NC(=O)[C@H](CCCCN)NC(=O)OCC1c2ccccc2-c2ccccc21)C(=O)N[C@H](C(=O)N[C@@H](Cc1ccccc1)C(=O)N[C@@H](Cc1ccccc1)C(=O)N[C@@H](CCCCN)C(=O)NCC(=O)N[C@@H](Cc1ccccc1)C(=O)N[C@@H](C)C(=O)N[C@@H](Cc1c[nH]c2ccccc12)C(=O)N[C@@H](CC(N)=O)C(=O)N[C@H](C(=O)N[C@H]1CSSC[C@@H](C(=O)N[C@@H](Cc2c[nH]cn2)C(=O)N[C@@H](CCCNC(=N)N)C(=O)N[C@@H](CCCNC(=N)N)C(=O)N[C@@H](C)C(=O)N[C@@H](CC(N)=O)C(N)=O)NC(=O)[C@H](C(C)C)NC(=O)[C@H](CCCNC(=N)N)NC(=O)[C@H](C(C)C)NC(=O)CNC(=O)[C@H](CC(N)=O)NC(=O)[C@H](CCCNC(=N)N)NC(=O)[C@H](Cc2ccc(O)cc2)NC(=O)[C@H](C(C)C)NC1=O)C(C)C)C(C)C` has an EC50 of 6.51 µM (bactericidal activity; CGMCC 1.9; 24 h).
`CN[C@H](CC(C)C)C(=O)N[C@H]1C(=O)N[C@@H](CC(N)=O)C(=O)N[C@H]2C(=O)N[C@H]3C(=O)N[C@H](C(=O)N[C@H](C(=O)O)c4cc(O)cc(O)c4-c4cc3ccc4O)[C@H](O)c3ccc(c(Cl)c3)Oc3cc2cc(c3O[C@@H]2O[C@H](CO)[C@@H](O)[C@H](O)[C@H]2O[C@H]2C[C@](C)(N)[C@H](O)[C@H](C)O2)Oc2ccc(cc2Cl)[C@H]1O`: antibacterial activity “inactive” (VRS2 VanA VRSA, mouse thigh infection; dose not given).
`COc1ccc2c(ccc3oc([N+](=O)[O-])cc32)c1` has an MIC90 of < 0.25 µg/mL (REMA).
For `OB(O)CSc1nc2ccccc2n1Cc1ccc(C(F)(F)F)cc1C(F)(F)F`, the FIC index was 0.25 (checkerboard; NRS21; added: cefoxitin).
Under “log2 fold change”, `Cc1c2c(nn1C)CSCc1cc(n(C)n1)CSc1cc(c3ccccc3c1)OCCCc1c(C(=O)O)n(C)c3c-2c(Cl)ccc13` is recorded as 2.94 (label-free quantitative proteomics, item: SAOUHSC_01835 protein; SA113; concentration not given; reference: untreated control).
Under “inhibition zone diameter”, `CO[C@@]1(NC(=O)Cc2cccs2)C(=O)N2C(C(=O)O)=C(COC(N)=O)CS[C@@H]21` is recorded as 23 mm (ATCC 25923; 64 µg per disk).
`C=CC[C@@H]1c2ccc(OC)c(OC)c2CN2CCc3cc4c(cc3[C@H]12)OCO4`: “relative wound size” 1.21 and 0.97 and 1.01 and 1 (P2rx7 A312V/A312V mice, skin wound infection; dose not given, day 2; reference: day 0).
`CN[C@H](CC(C)C)C(=O)N[C@H]1C(=O)N[C@@H](CC(N)=O)C(=O)N[C@H]2C(=O)N[C@H]3C(=O)N[C@H](C(=O)N[C@H](C(=O)O)c4cc(O)cc(O)c4-c4cc3ccc4O)[C@H](O)c3ccc(c(Cl)c3)Oc3cc2cc(c3O[C@@H]2O[C@H](CO)[C@@H](O)[C@H](O)[C@H]2O[C@H]2C[C@](C)(N)[C@H](O)[C@H](C)O2)Oc2ccc(cc2Cl)[C@H]1O` has an MIC range of 4 µg/mL (≈ 2.76 µM) (broth microdilution; vancomycin-intermediate clinical isolates).
`COC(=O)c1ccc2c(ccc3oc([N+](=O)[O-])cc32)c1` gave an MIC90 of > 32 µg/mL (REMA).
The MBC of `CC[C@H](C)[C@H](NC(=O)[C@H](Cc1ccccc1)NC(=O)[C@@H](NC(=O)[C@H](Cc1c[nH]c2ccccc12)NC(=O)[C@@H]1CCCN1C(=O)[C@@H](NC(=O)[C@H](C)N)[C@@H](C)CC)[C@@H](C)CC)C(=O)N[C@@H](Cc1ccccc1)C(=O)N[C@@H](CCCNC(=N)N)C(=O)N[C@@H](CC(C)C)C(=O)N[C@@H](CC(C)C)C(=O)N[C@@H](CCCNC(=N)N)C(=O)N[C@@H](CCCCN)C(=O)NCC(N)=O` is reported as 1.88 µM (≈ 3.25 µg/mL) (ATCC 6051; 18 h, 37 °C).
`CC(C)[C@@H]1NC(=O)CNC(=O)[C@H](CC(N)=O)NC(=O)[C@H](CCCNC(=N)N)NC(=O)[C@H](Cc2ccc(O)cc2)NC(=O)[C@H](C(C)C)NC(=O)[C@@H](NC(=O)[C@@H](NC(=O)[C@H](CC(N)=O)NC(=O)[C@H](Cc2c[nH]c3ccccc23)NC(=O)[C@H](C)NC(=O)[C@H](Cc2ccccc2)NC(=O)CN)C(C)C)CSSC[C@@H](C(=O)N[C@@H](Cc2c[nH]cn2)C(=O)N[C@@H](CCCNC(=N)N)C(=O)N[C@@H](CCCNC(=N)N)C(=O)N[C@@H](C)C(=O)N[C@@H](CC(N)=O)C(N)=O)NC(=O)[C@H](C(C)C)NC(=O)[C@H](CCCNC(=N)N)NC1=O` has an EC50 of 9.59 µM (bactericidal activity; CGMCC 1.9; 24 h).
`COC1=CC(=O)c2c(O)c3c(c(O)c2C1=O)O[C@]1(Oc2c(cc4cc(C)oc(=O)c4c2O)[C@@H](O)[C@@H]1O)[C@@H]3O` — result for “log2 fold change”: -2.95 (RNA-Seq, item: lexA; MRSA ATCC 433000; MIC, 12 h; reference: untreated).
With `CC[C@H]1OC(=O)[C@H](C)[C@@H](O[C@H]2C[C@@](C)(OC)[C@@H](O)[C@H](C)O2)[C@H](C)[C@@H](O[C@@H]2O[C@H](C)C[C@H](N(C)C)[C@H]2O)[C@](C)(O)C[C@@H](C)CN(C)[C@H](C)[C@@H](O)[C@]1(C)O` the MIC90 was > 32 µg/mL.
`CC[C@H](C)[C@H](N)C(=O)N[C@@H](CO)C(=O)N[C@@H](Cc1ccccc1)C(=O)N[C@@H](CC(C)C)C(=O)NCC(=O)N[C@@H](CO)C(=O)N[C@@H](CCCCN)C(=O)N[C@H](C(=O)N[C@H](C(=O)N[C@H](C(=O)N[C@@H](CC(C)C)C(=O)N[C@@H](CC(C)C)C(=O)N[C@@H](CCCCN)C(=O)N[C@@H](CCCNC(=N)N)C(=O)N[C@@H](CCCNC(=N)N)C(=O)N[C@@H](CCCCN)C(=O)N[C@@H](CCCNC(=N)N)C(=O)N[C@@H](CCCCN)C(=O)N[C@@H](CCCNC(=N)N)C(=O)N[C@@H](CCCCN)C(N)=O)C(C)C)C(C)C)C(C)C` gave an FICI of 0.19 (checkerboard; unit not given, added: oritavancin; lower means synergy).
`Cc1c([N+](=O)[O-])oc2ccc3ccccc3c12` has an MIC90 of 1 µg/mL (≈ 4.4 µM) (REMA).
The MBC of `CC[C@H](C)[C@H](NC(=O)[C@H](Cc1ccccc1)NC(=O)[C@@H](NC(=O)[C@H](Cc1ccccc1)NC(=O)[C@@H]1CCCN1C(=O)[C@@H](NC(=O)[C@H](C)N)[C@@H](C)CC)[C@@H](C)CC)C(=O)N[C@@H](Cc1c[nH]c2ccccc12)C(=O)N[C@@H](CCCNC(=N)N)C(=O)N[C@@H](CC(C)C)C(=O)N[C@@H](CC(C)C)C(=O)N[C@@H](CCCNC(=N)N)C(=O)N[C@@H](CCCCN)C(=O)NCC(N)=O` is reported as 1.88 µM (≈ 3.25 µg/mL) (ATCC 19609; 18 h, 37 °C).
For `COc1ccc2c(ccc3oc([N+](=O)[O-])c(OC)c32)c1`, the MIC90 was > 32 µg/mL (REMA).
`CC[C@H](C)[C@H](NC(=O)[C@H](Cc1c[nH]c2ccccc12)NC(=O)[C@@H](NC(=O)[C@H](Cc1ccc(O)cc1)NC(=O)[C@@H]1CCCN1C(=O)[C@@H](NC(=O)[C@H](C)N)[C@@H](C)CC)[C@@H](C)CC)C(=O)N[C@@H](Cc1ccc(O)cc1)C(=O)N[C@@H](CCCNC(=N)N)C(=O)N[C@@H](CC(C)C)C(=O)N[C@@H](CC(C)C)C(=O)N[C@@H](CCCNC(=N)N)C(=O)N[C@@H](CCCCN)C(=O)NCC(N)=O` has an MBC of 15 µM (≈ 26.4 µg/mL) (ATCC 19609; 18 h, 37 °C).
For `CN[C@H](CC(C)C)C(=O)N[C@H]1C(=O)N[C@@H](CC(N)=O)C(=O)N[C@H]2C(=O)N[C@H]3C(=O)N[C@H](C(=O)N[C@H](C(=O)O)c4cc(O)cc(O)c4-c4cc3ccc4O)[C@H](O)c3ccc(c(Cl)c3)Oc3cc2cc(c3O[C@@H]2O[C@H](CO)[C@@H](O)[C@H](O)[C@H]2O[C@H]2C[C@](C)(N)[C@H](O)[C@H](C)O2)Oc2ccc(cc2Cl)[C@H]1O`, the ROS level was 756 a.u. (DCFH-DA fluorescence; MRSA ATCC 33591; 1 × MIC; higher = more ROS).
The MIC90 of `C[C@H]1COc2c(N3CCN(C)CC3)c(F)cc3c(=O)c(C(=O)O)cn1c23` is reported as 32 µg/mL (≈ 88.6 µM).

For quick reference, copied from above:
With `CC[C@H](C)[C@H](NC(=O)[C@H](Cc1ccc(O)cc1)NC(=O)[C@@H](NC(=O)[C@H](Cc1c[nH]c2ccccc12)NC(=O)[C@@H]1CCCN1C(=O)[C@@H](NC(=O)[C@H](C)N)[C@@H](C)CC)[C@@H](C)CC)C(=O)N[C@@H](Cc1ccc(O)cc1)C(=O)N[C@@H](CCCNC(=N)N)C(=O)N[C@@H](CC(C)C)C(=O)N[C@@H](CC(C)C)C(=O)N[C@@H](CCCNC(=N)N)C(=O)N[C@@H](CCCCN)C(=O)NCC(=O)O` the MBC was 3.75 µM (≈ 6.61 µg/mL) (ATCC 35556; 18 h, 37 °C).
`COc1ccc2c(ccc3oc([N+](=O)[O-])cc32)c1` has an MIC90 of < 0.25 µg/mL (REMA).
`CN[C@H](CC(C)C)C(=O)N[C@H]1C(=O)N[C@@H](CC(N)=O)C(=O)N[C@H]2C(=O)N[C@H]3C(=O)N[C@H](C(=O)N[C@H](C(=O)O)c4cc(O)cc(O)c4-c4cc3ccc4O)[C@H](O)c3ccc(c(Cl)c3)Oc3cc2cc(c3O[C@@H]2O[C@H](CO)[C@@H](O)[C@H](O)[C@H]2O[C@H]2C[C@](C)(N)[C@H](O)[C@H](C)O2)Oc2ccc(cc2Cl)[C@H]1O` has an MIC range of 4 µg/mL (≈ 2.76 µM) (broth microdilution; vancomycin-intermediate clinical isolates).
